Experimental data of several laboratories.
Parts stem from different laboratories: compare values within a part only. Positions count from the first letter of the parent shown.

Study 1
Target: RNA binding protein fox-1 homolog 2, RRM domain, GST-SBP tag (RBFOX2, Homo sapiens, UniProt O43251-10, residues 100-194)
Method: RNA Bind-n-Seq
Form: RNA
Matrix: in vitro
Concentration: 365 nM
Notes: natural RNA segment, single round, ends assumed
Relative to: no-protein control
Reading: higher = stronger binding
Constant ends, left off below: GGGAGUUCUACAGUCCGACGAUC … UGGAAUUCUCGGGUGCCAA
Target sequence (chain): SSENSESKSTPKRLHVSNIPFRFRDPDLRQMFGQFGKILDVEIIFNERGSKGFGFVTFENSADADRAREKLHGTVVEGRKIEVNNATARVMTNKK
| Sequence | RBNS enrichment (R) |
| --- | --- |
| UCAAAUCUUCAUGAAUGGCAUCACUUGCUUUAGACCCAUUUUUUUUUUAUUGGUCAGAAAUAAAAUGUGACUGCAACUGUGUGCCCUCCCUUGUCGUGAAUUCCCUGUUU | 0.513 |
| GUUUUACUUGUUAGGGUCAAGGGUGUCUUGCCCAUUAACAGCUGUAGAUAGACAUUAAAGUAAAGCAGCUGUUUGUUAUUGAUAAUAAAAUACUAAGUAUUAUAAAACUG | 0.616 |
| AGAGGUGGGGUCACCCAAGCUGAGUGCCAUCUUUUCCUGAAUGUCAGAUCUGCAGCCUCGGGGACUCCCAGGUACACAGCAUCCUACUGUAACCUUGGAAGCUGACCAAA | 0.232 |
| GAGGGAGCCUUUCUCUAAGCCCUGCACUAACCCACUCCUCCCAAGACUCUUGUGGAGUGACAGUUCCAAGCUGAACCAUAAAUCACUGAUGCACAAAACACUGCUAGAAG | 0.305 |
| AGGUGGAUGGGUUGCUUUAUAAAUGUGCCUGGUGCAUGAGAAACUCUUGUUUCAGCUCUUGGCCUUUACCCAUGACUCAGCCUGGGGGCUGGUGCCGGCCUUGCCUGCAG | 2.14 |
| AACAGCUGUUUUUUCUACAUUAGAAAUAAGAUGCCACACAAGGAACUACAUUCCAGAUUUAAAGAAAUGAAAGGAUACCAUUAGUGUGUAUAACAGAUUAUUGUUCAUAC | 0.316 |
| UUUGACCCCUGGAGUGGUGGGUCUCAUCUUUCCCAUCUCGCCUGAGAGCGGCUGAGGGCUGCCUCACUGCAAAUCCUCCCCACAGCGUCAGUGAAAGUCGUCCUUGUCUC | 0.4 |
| AUCUGGAAGACAAGGUCAUUUCAUCUUGAGAUCAUGGUGAAAUAUUUUGGAUAUAUAAAUUCCUUAAGCUAUUGUAACCAUGUUUUAUUGCAAAGAUGUAAAAUAUGCCA | 0.314 |
| AAAGAGGAGAAUUUCCCAGUCAGGUAGCCAGGAGAACAGUGCCACCCUGCGAUUGUGCCACCCUGUGAUUGUAUAGCGUGUUGUUUGUUCCAGUAAGCAGGCAGGCCCAG | 1.14 |
| UCUGGUUUUGCCCUGUCAUGUCGUAACGAGGUGGGCCUUUUGAGGCCAUUUUAGUUUGAGUUCGAGCCAACCACCUCUGUUGGUUAGAUGAUGAAUAAAAAGGUUCUGAA | 0.283 |
| CCCCGAGUCCCUGCUGCUGCGCUCCUUUGCAUCCCUGGCCAGUGACCUUGUAUUUAUGAGGCCUCUGUGAGGCCAGCCCCCACCUUCCUCUUUCCCACCUGUCCCAGGAC | 3.2 |
| UUCCACUGACUUGCUGUGUGACCUUAGGAAGUCUCUGCCCCUCUCUCAGCCUCAGUGUCCCGAGGGCCCCGAAGCAUUCCAUUCUCGUGGAGGAGUUUCCUUGCUGAGAU | 0.609 |

Study 2
Target: Interferon regulatory factor 7, full length, phosphomimetic (IRF7, Homo sapiens, UniProt Q92985, residues 1-503, S101K/S471D/S472D/S475D/S476D/S477D/S483D/S484D/S487D)
Sequence of UniProt Q92985 (whole entry, unmodified, looked up): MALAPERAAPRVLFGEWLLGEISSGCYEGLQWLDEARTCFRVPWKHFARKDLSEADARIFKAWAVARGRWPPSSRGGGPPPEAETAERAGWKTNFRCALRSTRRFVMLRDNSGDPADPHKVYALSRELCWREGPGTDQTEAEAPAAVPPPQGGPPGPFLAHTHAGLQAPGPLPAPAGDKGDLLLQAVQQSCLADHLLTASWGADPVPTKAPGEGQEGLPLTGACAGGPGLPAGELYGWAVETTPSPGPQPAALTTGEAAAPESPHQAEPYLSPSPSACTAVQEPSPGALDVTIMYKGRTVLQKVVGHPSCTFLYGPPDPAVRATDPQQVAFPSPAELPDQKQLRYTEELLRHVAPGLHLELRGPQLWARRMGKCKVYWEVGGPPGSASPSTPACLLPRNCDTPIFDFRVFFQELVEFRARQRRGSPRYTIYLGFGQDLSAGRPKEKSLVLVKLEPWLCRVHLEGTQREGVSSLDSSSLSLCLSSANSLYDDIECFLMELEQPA
Method: protein-binding microarray
Form: double-stranded DNA, one strand shown
Matrix: in vitro
Concentration: 250 nM
Notes: 60-bp whole probe
Together with: salmon DNA 0.4 mg/ml
Relative to: random background probes
Reading: higher = stronger binding
Constant ends, left off below: GCCTAGCAC … GTCTTGATTCGCTTGACGCTGCTG
| Sequence | log fluorescence [z-score] |
| --- | --- |
| TCATACTTCTGTTTTTGACTGTGCTAG | 0.617 |
| GACGGCTCCCTTTTCCTGACGTGCTAG | 0.289 |
| TTAGAACTGAGAATCGATTAGTGCTAG | 0.133 |
| TGTTGTCTTAGATTCCTTTGGTGCTAG | 1.11 |
| GACGGTATCGACACCGGGGACGTGCTA | -0.25 |
| TTAGGTATCCTTCTACTTTAGTGCTAG | 0.00989 |
| TTAGGTTTCCTTATCCATTAGTGCTAG | 2.89 |
| TTAGGTATCGGACTGAGTTAGTGCTAG | 0.272 |
| GACGGACAGCTACTGCTGACGTGCTAG | -0.557 |
| GACGATATCAGGATCGAGACGTGCTAG | 0.0398 |
| TTACGACTGGACACTGGGTTAGTGCTA | -0.456 |
| TTAGCACTGAGTATCGATTAGTGCTAG | 0.0408 |
| GACGGACTGGACTTTCGGGATGTGCTA | -0.167 |
| TCATTTACCACATTCTCACTGTGCTAG | 2.12 |
| TAAGCAAAAATGATTGGTTGGTGCTAG | -0.102 |
| TTAGCACTGGACTATCGGTTAGTGCTA | -0.66 |
| GACGGACTGGTTTTCGGGACGTGCTAG | 0.361 |
| AACGGTTTCGGGACTGGGGACGTGCTA | 4.35 |
| GACGGTCTCGGACTGCGGACGTGCTAG | 0.0457 |
| CCTCCCTCTCCCGGAGTTCCGTGCTAG | 0.0769 |
| GACGATATCAGTTTCGTGACGTGCTAG | 2.06 |
| GACGGTATCCTTCGCCTGACGTGCTAG | -0.324 |
| TTACGTATCCTTATCCTTTAGTGCTAG | 0.745 |
| TTAGGTATGGGGTTTCGGTTAGTGCTA | 4.89 |

Study 3
Target: UBE2G2 UBC core domain (UniProt P60604)
Sequence of UniProt P60604 (whole entry, looked up): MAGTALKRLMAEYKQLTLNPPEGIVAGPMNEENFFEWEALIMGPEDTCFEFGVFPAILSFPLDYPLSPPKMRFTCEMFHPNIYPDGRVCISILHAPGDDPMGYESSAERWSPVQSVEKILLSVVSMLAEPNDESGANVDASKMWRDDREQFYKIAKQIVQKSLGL
Method: yeast two-hybrid
Matrix: yeast
Notes: mostly zero background
Relative to: not given
Reading: higher = stronger interaction
B1: RNF152 RING domain (UniProt Q8N8N0); chain ETLSQDSLLECQICFNYYSPRRRPKLLDCKHTCCSVCLQQMRTSQKDVRCPWCRGVTKLPPGFS
B2: MYCBP2 RING domain (UniProt O75592); chain TSLKQDADDMCMICFTEALSAAPAIQLDCSHIFHLQCCRRVLENRWLGPRITFGFISCPICKNKINHIVLKD
B3: TRIM31 RING domain (UniProt Q9BZY9); chain FVNKLQEEVICPICLDILQKPVTIDCGHNFCLKCITQIGETSCGFFKCPLCKTSVRKNAIRF
B4: MEX3B RING domain (UniProt Q6ZN04); chain SGLRRKGSRDCSVCFESEVIAALVPCGHNLFCMECANRICEKSEPECPVCHTAVTQAIRIF
B5: RNF2 RING domain (UniProt Q99496); chain SPRSLHSELMCPICLDMLKNTMTTKECLHRFCADCIITALRSGNKECPTCRKKLVSKRSLR
| Sequence | lacZ reporter activity |
| --- | --- |
| B1 (RNF152 RING domain) | 0 |
| FVKTVEDKYKCEKCHLVLCSPKQTECGHRFCESCMAALLSSSSPKCTACQESIVKDKVF (TRAF3 RING domain (UniProt Q13114)) | 0 |
| B2 (MYCBP2 RING domain) | 0 |
| B3 (TRIM31 RING domain) | 17500 |
| AEADPLGRFTCPVCLEVYEKPVQVPCGHVFCSACLQECLKPKKPVCGVCRSALAPGVRAV (RNF114 RING domain (UniProt Q9Y508)) | 0 |
| B4 (MEX3B RING domain) | 0 |
| LGTKLEAKYLCSACRNVLRRPFQAQCGHRYCSFCLASILSSGPQNCAACVHEGIYEEGIS (TRAF2 RING domain (UniProt Q12933)) | 0 |
| LDAASGHPLVCPLCHGQYERPCLLDCFHDFCTGCLRGRATDGRLSCPLCQHQTLVKGPSG (Rnf207 RING domain (UniProt Q3V3A7)) | 0 |
| YCEMGSTFQLCKICAENDKDVKIEPCGHLMCTSCLTAWQESDGQGCPFCRCEIKGTEPII (CBLB RING domain (UniProt Q13191)) | 0 |
| B5 (RNF2 RING domain) | 0 |

Study 4
Target: ABI1, truncated, D143A, DHFR fusion (Arabidopsis thaliana)
Method: DHFR PCA, deep sequencing
Matrix: yeast
Notes: methotrexate growth selection, single substitutions
Together with: (+)-ABA 710 µM
Relative to: wild-type fitted maximum
Reading: higher = stronger binding
Parent: PYL1, truncated, DHFR fusion (Arabidopsis thaliana); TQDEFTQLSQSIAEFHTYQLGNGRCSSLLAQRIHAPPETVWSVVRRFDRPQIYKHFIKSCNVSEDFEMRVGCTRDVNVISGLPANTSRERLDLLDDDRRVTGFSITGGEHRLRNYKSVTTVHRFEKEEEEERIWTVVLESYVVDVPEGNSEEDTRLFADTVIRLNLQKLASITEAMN
| Variant | relative binding score [%] |
| --- | --- |
| T135C | 109 |
| Q2K | 105 |
| L156Q | 98.4 |
| V161S | 10.9 |
| Y141T | -3.67 |
| S27F | 59.5 |
| G148M | 87.9 |
| F124Y | 110 |
| E131F | 106 |
| R74K | -19.5 |
| T160A | 87.5 |
| S11W | 104 |
| H16V | 19.9 |

Study 5
Target: CCNB1, cyclin fold, Cln2 fusion (human)
Method: yeast growth competition, sequencing
Matrix: yeast
Notes: weak parent motif
Relative to: not given
Reading: higher = stronger binding
Parent: ORC1 docking peptide (human); PRARKRLELGNLG
| Variant | normalised enrichment score |
| --- | --- |
| G13I | 0.35 |
| N11H | 0.775 |
| R4H | 0.968 |
| L9T | -0.073 |
| G13L | -0.166 |
| A3L | 0.115 |
| R4N | 0.641 |
| L7F | -0.26 |
| R6N | 0.64 |
| L7H | 1.21 |
| G10Q | 0.31 |
| R2M | 0.288 |
| L12K | 0.678 |
| G10A | 0.253 |

For quick reference, copied from above (study 1):
| Sequence | RBNS enrichment (R) |
| --- | --- |
| UCAAAUCUUCAUGAAUGGCAUCACUUGCUUUAGACCCAUUUUUUUUUUAUUGGUCAGAAAUAAAAUGUGACUGCAACUGUGUGCCCUCCCUUGUCGUGAAUUCCCUGUUU | 0.513 |
| GUUUUACUUGUUAGGGUCAAGGGUGUCUUGCCCAUUAACAGCUGUAGAUAGACAUUAAAGUAAAGCAGCUGUUUGUUAUUGAUAAUAAAAUACUAAGUAUUAUAAAACUG | 0.616 |
| AGAGGUGGGGUCACCCAAGCUGAGUGCCAUCUUUUCCUGAAUGUCAGAUCUGCAGCCUCGGGGACUCCCAGGUACACAGCAUCCUACUGUAACCUUGGAAGCUGACCAAA | 0.232 |
| GAGGGAGCCUUUCUCUAAGCCCUGCACUAACCCACUCCUCCCAAGACUCUUGUGGAGUGACAGUUCCAAGCUGAACCAUAAAUCACUGAUGCACAAAACACUGCUAGAAG | 0.305 |
| AGGUGGAUGGGUUGCUUUAUAAAUGUGCCUGGUGCAUGAGAAACUCUUGUUUCAGCUCUUGGCCUUUACCCAUGACUCAGCCUGGGGGCUGGUGCCGGCCUUGCCUGCAG | 2.14 |
| AACAGCUGUUUUUUCUACAUUAGAAAUAAGAUGCCACACAAGGAACUACAUUCCAGAUUUAAAGAAAUGAAAGGAUACCAUUAGUGUGUAUAACAGAUUAUUGUUCAUAC | 0.316 |
| UUUGACCCCUGGAGUGGUGGGUCUCAUCUUUCCCAUCUCGCCUGAGAGCGGCUGAGGGCUGCCUCACUGCAAAUCCUCCCCACAGCGUCAGUGAAAGUCGUCCUUGUCUC | 0.4 |
| AUCUGGAAGACAAGGUCAUUUCAUCUUGAGAUCAUGGUGAAAUAUUUUGGAUAUAUAAAUUCCUUAAGCUAUUGUAACCAUGUUUUAUUGCAAAGAUGUAAAAUAUGCCA | 0.314 |
| AAAGAGGAGAAUUUCCCAGUCAGGUAGCCAGGAGAACAGUGCCACCCUGCGAUUGUGCCACCCUGUGAUUGUAUAGCGUGUUGUUUGUUCCAGUAAGCAGGCAGGCCCAG | 1.14 |
| UCUGGUUUUGCCCUGUCAUGUCGUAACGAGGUGGGCCUUUUGAGGCCAUUUUAGUUUGAGUUCGAGCCAACCACCUCUGUUGGUUAGAUGAUGAAUAAAAAGGUUCUGAA | 0.283 |
| CCCCGAGUCCCUGCUGCUGCGCUCCUUUGCAUCCCUGGCCAGUGACCUUGUAUUUAUGAGGCCUCUGUGAGGCCAGCCCCCACCUUCCUCUUUCCCACCUGUCCCAGGAC | 3.2 |
| UUCCACUGACUUGCUGUGUGACCUUAGGAAGUCUCUGCCCCUCUCUCAGCCUCAGUGUCCCGAGGGCCCCGAAGCAUUCCAUUCUCGUGGAGGAGUUUCCUUGCUGAGAU | 0.609 |
